Experimental data gathered from unrelated publications.
Numbered parts are unrelated; each lists some results of a single study. Values joined by “and” are separate records of one study, mostly repeats; a detail may differ.
Sequence of UniProt P51955 (whole entry, looked up): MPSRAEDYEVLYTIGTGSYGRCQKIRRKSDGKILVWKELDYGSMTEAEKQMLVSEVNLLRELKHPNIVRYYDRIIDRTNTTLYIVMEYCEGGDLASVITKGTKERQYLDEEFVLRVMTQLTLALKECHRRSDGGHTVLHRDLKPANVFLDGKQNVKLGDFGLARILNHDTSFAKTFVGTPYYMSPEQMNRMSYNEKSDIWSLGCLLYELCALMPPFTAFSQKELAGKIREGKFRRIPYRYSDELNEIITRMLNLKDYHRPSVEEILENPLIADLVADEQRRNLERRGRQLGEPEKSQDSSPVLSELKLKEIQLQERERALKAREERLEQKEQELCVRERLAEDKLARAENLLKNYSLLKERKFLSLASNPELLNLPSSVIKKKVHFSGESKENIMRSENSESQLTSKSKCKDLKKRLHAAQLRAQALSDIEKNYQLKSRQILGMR
Sequence of UniProt Q6PHR2 (whole entry, looked up): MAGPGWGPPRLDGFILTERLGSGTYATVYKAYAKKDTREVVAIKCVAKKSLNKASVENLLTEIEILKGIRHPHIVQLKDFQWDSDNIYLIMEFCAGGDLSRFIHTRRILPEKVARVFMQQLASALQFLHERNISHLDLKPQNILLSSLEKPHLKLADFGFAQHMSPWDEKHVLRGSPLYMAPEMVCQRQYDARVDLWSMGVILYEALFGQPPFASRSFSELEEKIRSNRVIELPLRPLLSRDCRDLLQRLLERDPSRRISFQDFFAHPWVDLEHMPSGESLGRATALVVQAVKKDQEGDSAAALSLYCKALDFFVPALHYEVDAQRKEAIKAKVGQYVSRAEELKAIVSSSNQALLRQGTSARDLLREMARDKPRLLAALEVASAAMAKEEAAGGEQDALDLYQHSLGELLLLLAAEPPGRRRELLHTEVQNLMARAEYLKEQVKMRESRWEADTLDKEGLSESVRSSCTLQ
Sequence of UniProt Q16566 (whole entry, looked up): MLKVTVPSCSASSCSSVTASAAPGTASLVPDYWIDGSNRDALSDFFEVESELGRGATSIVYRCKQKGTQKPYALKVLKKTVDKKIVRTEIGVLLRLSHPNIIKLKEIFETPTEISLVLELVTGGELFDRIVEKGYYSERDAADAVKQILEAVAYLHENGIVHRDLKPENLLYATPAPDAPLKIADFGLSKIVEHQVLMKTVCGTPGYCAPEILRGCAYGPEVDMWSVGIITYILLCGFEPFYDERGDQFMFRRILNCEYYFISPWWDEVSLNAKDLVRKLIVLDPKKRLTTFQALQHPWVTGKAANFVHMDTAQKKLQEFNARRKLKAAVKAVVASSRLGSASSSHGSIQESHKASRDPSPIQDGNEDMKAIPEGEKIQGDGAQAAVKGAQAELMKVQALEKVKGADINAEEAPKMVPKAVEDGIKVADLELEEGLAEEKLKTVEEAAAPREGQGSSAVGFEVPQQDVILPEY
Sequence of UniProt Q86UE8 (whole entry, looked up): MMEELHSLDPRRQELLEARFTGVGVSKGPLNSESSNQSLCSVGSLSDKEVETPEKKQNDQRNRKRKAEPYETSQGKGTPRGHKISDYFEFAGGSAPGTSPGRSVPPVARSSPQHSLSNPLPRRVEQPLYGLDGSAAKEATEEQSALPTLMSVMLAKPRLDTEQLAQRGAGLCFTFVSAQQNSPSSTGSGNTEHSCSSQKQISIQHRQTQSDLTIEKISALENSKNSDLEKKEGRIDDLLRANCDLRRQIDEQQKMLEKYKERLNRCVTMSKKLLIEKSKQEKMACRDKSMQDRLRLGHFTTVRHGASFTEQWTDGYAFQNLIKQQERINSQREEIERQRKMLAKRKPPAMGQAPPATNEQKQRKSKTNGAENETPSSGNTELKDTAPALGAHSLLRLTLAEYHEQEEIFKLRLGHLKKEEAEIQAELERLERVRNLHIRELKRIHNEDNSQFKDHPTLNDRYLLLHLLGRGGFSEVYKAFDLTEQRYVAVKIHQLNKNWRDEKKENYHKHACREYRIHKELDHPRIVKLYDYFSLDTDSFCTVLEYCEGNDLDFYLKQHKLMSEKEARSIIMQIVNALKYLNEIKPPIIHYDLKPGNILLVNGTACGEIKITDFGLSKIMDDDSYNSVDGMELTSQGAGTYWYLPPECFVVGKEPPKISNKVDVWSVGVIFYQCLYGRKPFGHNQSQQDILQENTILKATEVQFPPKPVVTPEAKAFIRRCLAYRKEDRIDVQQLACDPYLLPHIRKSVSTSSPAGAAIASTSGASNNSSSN
Sequence of UniProt Q6XUX3 (whole entry, looked up): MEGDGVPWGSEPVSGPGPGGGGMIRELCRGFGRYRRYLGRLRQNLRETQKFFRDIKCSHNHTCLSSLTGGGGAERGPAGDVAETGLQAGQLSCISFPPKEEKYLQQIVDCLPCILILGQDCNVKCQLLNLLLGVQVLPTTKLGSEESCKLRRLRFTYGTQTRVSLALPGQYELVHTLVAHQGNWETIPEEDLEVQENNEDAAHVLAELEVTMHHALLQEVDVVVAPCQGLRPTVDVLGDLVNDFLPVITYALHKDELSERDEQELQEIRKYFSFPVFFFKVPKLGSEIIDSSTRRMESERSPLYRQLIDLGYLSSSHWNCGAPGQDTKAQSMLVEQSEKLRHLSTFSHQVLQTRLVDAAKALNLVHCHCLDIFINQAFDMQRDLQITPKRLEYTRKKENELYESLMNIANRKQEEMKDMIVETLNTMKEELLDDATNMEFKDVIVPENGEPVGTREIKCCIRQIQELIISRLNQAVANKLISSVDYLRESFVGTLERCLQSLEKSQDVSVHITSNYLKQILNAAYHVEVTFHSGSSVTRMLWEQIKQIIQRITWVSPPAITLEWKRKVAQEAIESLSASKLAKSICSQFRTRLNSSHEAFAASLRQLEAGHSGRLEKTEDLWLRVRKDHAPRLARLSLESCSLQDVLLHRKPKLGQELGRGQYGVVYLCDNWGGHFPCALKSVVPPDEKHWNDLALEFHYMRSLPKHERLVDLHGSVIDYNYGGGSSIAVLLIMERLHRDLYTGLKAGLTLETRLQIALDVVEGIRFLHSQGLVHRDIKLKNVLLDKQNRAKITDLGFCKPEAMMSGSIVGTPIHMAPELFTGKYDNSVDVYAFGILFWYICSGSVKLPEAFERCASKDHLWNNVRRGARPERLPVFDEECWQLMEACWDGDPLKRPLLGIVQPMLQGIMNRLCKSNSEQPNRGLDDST
Sequence of UniProt P35626 (whole entry, looked up): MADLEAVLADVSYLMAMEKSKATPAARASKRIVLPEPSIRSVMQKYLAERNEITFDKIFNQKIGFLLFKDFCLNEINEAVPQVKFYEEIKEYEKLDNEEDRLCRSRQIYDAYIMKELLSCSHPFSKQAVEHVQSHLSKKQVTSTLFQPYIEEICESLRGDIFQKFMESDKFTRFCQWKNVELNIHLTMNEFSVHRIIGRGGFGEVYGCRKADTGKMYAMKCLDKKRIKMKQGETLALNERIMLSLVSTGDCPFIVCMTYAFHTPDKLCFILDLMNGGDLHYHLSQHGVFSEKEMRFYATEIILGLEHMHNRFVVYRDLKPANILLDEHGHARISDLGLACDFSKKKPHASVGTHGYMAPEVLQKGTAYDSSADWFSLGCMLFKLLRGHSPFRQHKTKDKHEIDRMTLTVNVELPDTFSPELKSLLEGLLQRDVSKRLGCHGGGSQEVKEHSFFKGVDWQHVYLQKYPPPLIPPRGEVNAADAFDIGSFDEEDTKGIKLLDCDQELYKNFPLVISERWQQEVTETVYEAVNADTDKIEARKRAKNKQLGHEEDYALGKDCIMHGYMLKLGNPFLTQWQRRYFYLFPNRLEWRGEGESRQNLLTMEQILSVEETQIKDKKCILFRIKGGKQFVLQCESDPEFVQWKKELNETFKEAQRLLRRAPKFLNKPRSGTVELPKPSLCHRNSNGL

Series 1
SMILES: Cc1c(C(=O)O)cc(-c2ccc(C3CCNCC3)cc2)c2ccc(-c3ccc(C(F)(F)F)cc3)cc12
Method: competition with immobilised ligand
Concentration: 1 µM
Cyclin-dependent kinase-like 5 (CDKL5, Homo sapiens, UniProt O76039); binding — remaining binding: 100%.
For G protein-coupled receptor kinase 3 (GRK3, Homo sapiens, UniProt P35626); binding: remaining binding read 71%.
Serine/threonine-protein kinase Nek2 (NEK2, Homo sapiens, UniProt P51955); binding — remaining binding: 100%.
For Receptor-type tyrosine-protein kinase FLT3 (FLT3, Homo sapiens, UniProt P36888, N841I); binding: remaining binding read 100%.
Dual serine/threonine and tyrosine protein kinase (DSTYK, Homo sapiens, UniProt Q6XUX3); binding — remaining binding: 100%.
For Tyrosine-protein kinase Lck (LCK, Homo sapiens, UniProt P06239); binding: remaining binding read 100%.
It gave 100% for remaining binding (Calcium/calmodulin-dependent protein kinase type IV (CAMK4, Homo sapiens, UniProt Q16566); binding).
Serine/threonine-protein kinase ULK3 (ULK3, Homo sapiens, UniProt Q6PHR2); binding — remaining binding: 95%.
It gave 82% for remaining binding (Myosin light chain kinase, smooth muscle (MYLK, Homo sapiens, UniProt Q15746); binding).
For Serine/threonine-protein kinase tousled-like 2 (TLK2, Homo sapiens, UniProt Q86UE8); cell-free assay: remaining binding read 100%.

Series 2
Target: Focal adhesion kinase 1 (PTK2, Homo sapiens, UniProt Q05397)
Sequence of UniProt Q05397 (whole entry, looked up): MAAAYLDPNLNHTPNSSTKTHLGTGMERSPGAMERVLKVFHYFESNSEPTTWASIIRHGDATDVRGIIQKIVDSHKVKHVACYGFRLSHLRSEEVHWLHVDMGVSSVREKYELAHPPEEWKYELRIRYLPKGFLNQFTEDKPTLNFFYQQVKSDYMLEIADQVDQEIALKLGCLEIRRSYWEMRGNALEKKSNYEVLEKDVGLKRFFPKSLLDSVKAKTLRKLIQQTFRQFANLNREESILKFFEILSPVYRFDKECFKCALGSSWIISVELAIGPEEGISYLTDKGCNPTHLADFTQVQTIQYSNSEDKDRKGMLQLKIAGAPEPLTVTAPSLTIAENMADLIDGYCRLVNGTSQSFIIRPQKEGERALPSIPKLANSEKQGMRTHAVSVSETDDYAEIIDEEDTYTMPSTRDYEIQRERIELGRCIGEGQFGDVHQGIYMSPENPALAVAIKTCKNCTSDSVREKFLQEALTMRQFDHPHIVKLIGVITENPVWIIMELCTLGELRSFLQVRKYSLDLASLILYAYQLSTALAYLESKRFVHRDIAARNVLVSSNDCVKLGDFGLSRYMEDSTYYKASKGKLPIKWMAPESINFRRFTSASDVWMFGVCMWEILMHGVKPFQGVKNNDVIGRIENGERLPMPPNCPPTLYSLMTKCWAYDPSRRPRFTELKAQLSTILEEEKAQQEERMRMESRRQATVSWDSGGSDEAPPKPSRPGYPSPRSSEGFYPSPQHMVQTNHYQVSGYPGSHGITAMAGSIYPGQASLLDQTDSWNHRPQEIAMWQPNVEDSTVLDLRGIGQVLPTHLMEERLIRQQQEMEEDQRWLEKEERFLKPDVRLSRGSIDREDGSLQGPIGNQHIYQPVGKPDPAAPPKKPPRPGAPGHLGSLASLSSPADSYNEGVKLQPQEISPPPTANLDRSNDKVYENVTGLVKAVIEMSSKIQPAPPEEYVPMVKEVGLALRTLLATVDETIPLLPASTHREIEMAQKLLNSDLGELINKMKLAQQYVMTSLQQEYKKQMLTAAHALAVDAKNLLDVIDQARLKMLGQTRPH
Observed: enzyme activity
Mode: inhibitor
Concentration: 0.5 µM
Baseline: control
`CN(C)CCCn1cc(C2=C(c3c[nH]c4ccccc34)C(=O)NC2=O)c2ccccc21` has a remaining activity of 86.1%.
The remaining activity of `COc1cc2ncc(-c3ccccc3)nc2cc1OC` is reported as 100%.
The remaining activity of `CCOc1cc2ncnc(Nc3cccc(Br)c3)c2cc1OCC` is reported as 101%.
`Cn1cc(/C=C2\C(=O)Nc3ccc(S(N)(=O)=O)cc32)c2ccccc21` has a remaining activity of 94.1%.
With `Cc1ccc(NC(=O)c2ccc(CN3CCN(C)CC3)cc2)cc1Nc1nccc(-c2cccnc2)n1` the remaining activity was 94.9%.
With `CC(C)[C@H](CO)Nc1nc(Nc2cccc(Cl)c2)c2ncn(C(C)C)c2n1` the remaining activity was 85.9%.
The remaining activity of `Nc1[nH]nc2nnc(-c3c(-c4ccccc4)nn4ccccc34)cc12` is reported as 99.2%.
`CCC(=O)Nc1ccc2ncnc(Nc3cccc(Br)c3)c2c1` has a remaining activity of 99.4%.
`Cc1nc(Nc2ncc(C(=O)Nc3c(C)cccc3Cl)s2)cc(N2CCN(CCO)CC2)n1` gave a remaining activity of 103%.
`CC(C)c1nn(-c2c(Cl)cccc2Cl)c2nc(Cc3ccc(OCCO)cc3)[nH]c(=O)c12` gave a remaining activity of 103%.
`CS(=O)(=O)CCNCc1ccc(-c2ccc3ncnc(Nc4ccc(OCc5cccc(F)c5)c(Cl)c4)c3c2)o1` has a remaining activity of 104%.

Series 3
Cell line: mouse MPNST tumor cells
Method: high-content nuclear imaging
Measured: cell number
Concentration: 10 µM
Time: 12 h
Setting: mean of 2 replicates
Baseline: plate mean
Direction: higher = more cells
For `CCN(CC)C(=O)C1(c2ccccc2)CC1CN` (stereo not drawn), the nuclei count was 2.26 z-score.
`CC(=O)Nc1ccc(NC(=S)NC(=O)c2ccc(C(C)(C)C)cc2)cc1` has a nuclei count of 0.725 z-score.
`CN1CCCN(C(c2ccccc2)c2ccc(Cl)cc2)CC1` (stereo not drawn) has a nuclei count of -6.97 z-score.
`CCN(CCO)CCCC(C)Nc1ccnc2cc(Cl)ccc12` (stereo not drawn) has a nuclei count of 1.47 z-score and 2.87 z-score.
The nuclei count of `Nc1nc(N)nc(-c2cc(Cl)ccc2Cl)n1` is reported as 0.939 z-score and 0.525 z-score.
For `CCOC(=O)c1ccc(NC2CCCCC2)c(N)c1`, the nuclei count was 0.716 z-score.
`O=C(O)[C@H]1CCCC[C@H]1C(=O)N1CCc2ccccc2[C@H]1CN1C(=O)c2ccccc2C1=O` has a nuclei count of 0.304 z-score.
`Cc1cc(CCC[C@H](CC(=O)NO)C(=O)N[C@H](C(=O)N[C@H](C)c2ccccc2)C(C)(C)C)ccc1-c1ccccc1` has a nuclei count of -4.12 z-score.
`COC(c1ccccc1)(c1ccccc1)[C@H](Oc1nc(C)cc(C)n1)C(=O)O` gave a nuclei count of 1.33 z-score and 1.2 z-score.
With `COc1cc(OC)cc(-c2ccc3c(-c4ccc(F)cc4)[nH]nc3n2)c1` the nuclei count was 0.343 z-score.
The nuclei count of `O=c1cc(N2CCOCC2)oc2c(-c3ccccc3)cccc12` is reported as 0.666 z-score.

Mixed results
Under “sedoheptulose 7-phosphate level”, `CC(=O)N[C@@H](Cc1c[nH]c2ccccc12)C(=O)N[C@@H](CCC(=O)C=[N+]=[N-])C(=O)OC(C)C` is recorded as 1.4e+06 a.u. and 1.44e+06 a.u. and 1.39e+06 a.u. and 1.6e+06 a.u. and 1.26e+06 a.u. and 1.86e+06 a.u. (UPLC-MS/MS; EL4 tumor, C57BL/6 CES1-/- mice, tumor; subcutaneous, 0.3 mg/kg DON equivalent daily, 5 days; higher = more metabolite).

A few entries again (series 1):
Dual serine/threonine and tyrosine protein kinase (DSTYK, Homo sapiens, UniProt Q6XUX3); binding — remaining binding: 100%.
For Tyrosine-protein kinase Lck (LCK, Homo sapiens, UniProt P06239); binding: remaining binding read 100%.
It gave 100% for remaining binding (Calcium/calmodulin-dependent protein kinase type IV (CAMK4, Homo sapiens, UniProt Q16566); binding).
Serine/threonine-protein kinase ULK3 (ULK3, Homo sapiens, UniProt Q6PHR2); binding — remaining binding: 95%.
It gave 82% for remaining binding (Myosin light chain kinase, smooth muscle (MYLK, Homo sapiens, UniProt Q15746); binding).
